Published values gathered from unrelated publications.
A part holds a random share of what one study measured. Several values in a cell are separate wells, animals, samples, runs or records.
UniProt P00519, sequence (whole entry, unmodified, looked up): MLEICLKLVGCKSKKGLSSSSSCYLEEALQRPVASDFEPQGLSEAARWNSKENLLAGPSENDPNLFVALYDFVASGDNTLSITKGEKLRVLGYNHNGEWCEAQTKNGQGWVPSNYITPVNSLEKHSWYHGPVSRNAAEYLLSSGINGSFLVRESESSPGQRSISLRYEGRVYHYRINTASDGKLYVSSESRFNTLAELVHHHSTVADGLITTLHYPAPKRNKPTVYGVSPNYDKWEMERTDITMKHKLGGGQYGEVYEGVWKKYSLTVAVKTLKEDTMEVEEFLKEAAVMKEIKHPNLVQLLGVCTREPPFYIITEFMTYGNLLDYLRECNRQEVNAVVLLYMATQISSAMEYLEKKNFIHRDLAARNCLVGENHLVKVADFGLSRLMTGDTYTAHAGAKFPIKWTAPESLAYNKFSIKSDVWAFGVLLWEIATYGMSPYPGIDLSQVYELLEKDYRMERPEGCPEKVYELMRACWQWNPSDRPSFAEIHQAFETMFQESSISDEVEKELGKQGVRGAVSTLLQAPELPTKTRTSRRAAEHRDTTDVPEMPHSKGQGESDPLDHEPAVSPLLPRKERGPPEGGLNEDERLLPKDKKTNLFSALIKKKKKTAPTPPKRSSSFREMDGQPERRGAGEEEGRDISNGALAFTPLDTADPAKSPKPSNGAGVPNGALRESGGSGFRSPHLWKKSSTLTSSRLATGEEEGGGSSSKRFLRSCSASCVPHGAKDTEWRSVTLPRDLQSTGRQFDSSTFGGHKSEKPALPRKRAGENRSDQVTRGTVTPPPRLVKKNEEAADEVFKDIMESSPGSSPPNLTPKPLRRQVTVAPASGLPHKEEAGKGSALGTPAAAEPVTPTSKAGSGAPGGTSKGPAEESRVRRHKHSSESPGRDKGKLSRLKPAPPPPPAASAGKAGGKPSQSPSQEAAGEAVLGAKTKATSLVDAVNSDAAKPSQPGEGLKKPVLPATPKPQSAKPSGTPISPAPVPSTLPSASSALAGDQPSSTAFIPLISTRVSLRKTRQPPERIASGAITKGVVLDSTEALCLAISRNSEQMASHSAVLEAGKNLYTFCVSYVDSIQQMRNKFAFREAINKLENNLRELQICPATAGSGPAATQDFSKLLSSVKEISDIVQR

Sample 1
Cell line: mouse MPNST tumor cells
Technique: high-content nuclear imaging
Measured: cell number
Concentration: 10 µM
Time: 12 h
Notes: mean of 2 replicates
Baseline: plate mean
Reading: higher = more cells
For CCCC[P+](CCCC)(CCCC)Cc1ccc(NC(=O)C(Cc2ccc3ccccc3c2)NC(=NC2CCCCC2)NC2CCCCC2)cc1 (centres unmarked), the nuclei count was -2.87 z-score.
C[C@]12C[C@H](O)[C@H]3[C@@H](CCC4=CC(=O)CC[C@@]43C)[C@@H]1CC[C@@H]2C(=O)CO has a nuclei count of 3.14 z-score and 1.62 z-score.
COc1cccc(OC)c1-c1cc(C(=O)NC2(C(=O)O)C3CC4CC(C3)CC2C4)nn1-c1ccc(C(=O)N(C)CCCN(C)C)cc1C(C)C (centres unmarked) gave a nuclei count of 1.4 z-score.

Sample 2
Species: human
Matrix: microsomes or S9
Concentration: 2 µM
Time: 0.5 h
Cc1cc(C)n(-c2nc3cc(Cl)ccc3nc2N2CCN(c3ccccn3)CC2)n1 has a remaining compound of 2.8%.
With CCCc1nc(N2CCN(CC(=O)N3CCCC3)CC2)c(C#N)c2c1CCC2 the remaining compound was 41.7%.
The remaining compound of CC(C)O[C@H]1C[C@@H](NC(=O)Nc2ccnnc2)C1 is reported as 96.8%.

Mixed results
CC(C(=O)O)c1cccc(Oc2ccccc2)c1 (centres unmarked) has an infection rate of 111% (Plasmodium berghei; inhibitor; Huh-7, liver stage; 10 µM, 24 h; baseline: untreated control).
For Cn1cncc1[C@](O)(COc1ccc(C#N)cc1-c1ccc(OC(F)(F)F)cc1)c1ccc(C#N)cc1, the remaining binding was 100% (Tyrosine-protein kinase ABL1, phosphorylated (ABL1, Homo sapiens, UniProt P00519, F317I); binding; 1 µM).

A few entries again (mixed results):
CC(C(=O)O)c1cccc(Oc2ccccc2)c1 (centres unmarked) has an infection rate of 111% (Plasmodium berghei; inhibitor; Huh-7, liver stage; 10 µM, 24 h; baseline: untreated control).
